Results from different studies.
Every numbered part comes from another study and shows a few of its results, in no order. Substitutions count along the parent as printed.

Sample 1 — method: protein binding microarray; form: double-stranded DNA, one strand shown; sample: in vitro; tested at: not given; baseline: not given; reading: higher = stronger binding; measurement: E-score
Target: Histone acetyltransferase KAT6A, both winged helices, GST fusion (KAT6A, Homo sapiens, UniProt Q92794, residues 1-181)
Notes: 8-mer, flanks averaged, mean of 2 arrays, mostly near background
Construct (chain): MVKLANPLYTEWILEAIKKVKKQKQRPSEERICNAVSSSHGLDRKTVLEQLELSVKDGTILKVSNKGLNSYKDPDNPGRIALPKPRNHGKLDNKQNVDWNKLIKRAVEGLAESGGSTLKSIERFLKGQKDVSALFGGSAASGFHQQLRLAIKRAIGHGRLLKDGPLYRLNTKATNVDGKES
CCAGGTGA: -0.216
CACTTGGC: -0.109
CTCAGAGC: -0.00566
CTCTGCTA: -0.122
TCTGGGAA: -0.134
TAATCCTA: -0.0147
GTGGGACA: -0.0267
ACCAAAGC: -0.0306

Sample 2 — method: DHFR PCA, deep sequencing; sample: yeast; together with: (+)-ABA 58 µM; baseline: wild-type fitted maximum; reading: higher = stronger binding; measurement: relative binding score
Target: ABI1, truncated, D143A, DHFR fusion (Arabidopsis thaliana)
Notes: methotrexate growth selection, single substitutions
Starting sequence: PYL1, truncated, DHFR fusion (Arabidopsis thaliana); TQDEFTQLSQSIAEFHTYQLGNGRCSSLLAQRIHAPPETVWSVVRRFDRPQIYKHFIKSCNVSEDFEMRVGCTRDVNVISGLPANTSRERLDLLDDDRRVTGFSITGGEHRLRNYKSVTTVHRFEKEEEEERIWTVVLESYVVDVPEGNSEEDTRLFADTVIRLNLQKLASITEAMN
R45I: -3.74%
D92W: 35.3%
S27D: 76.5%
K126V: 97.2%
D92T: 63.8%
R49G: 45.8%
F157G: -2.2%
R88E: 75.5%

Other studies, line by line
P1: viral docking peptide; KGVKRKLFAEDSS; partner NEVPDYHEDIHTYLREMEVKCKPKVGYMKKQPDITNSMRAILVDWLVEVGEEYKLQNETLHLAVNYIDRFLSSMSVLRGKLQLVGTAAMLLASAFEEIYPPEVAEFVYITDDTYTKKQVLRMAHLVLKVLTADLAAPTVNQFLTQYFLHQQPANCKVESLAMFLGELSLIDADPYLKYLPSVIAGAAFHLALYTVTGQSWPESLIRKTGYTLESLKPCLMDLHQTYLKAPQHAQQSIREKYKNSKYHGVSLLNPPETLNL
P1 K6L
normalised enrichment score (CCNA2, cyclin fold, Cln2 fusion (human); yeast growth competition, sequencing; yeast; strong parent motif; baseline: not given, higher = stronger binding): 4.25

PhoQ, residues 284 288 289 292 302 303 WSHMKI
fold induction (PhoP, residues 12 14 15 18 19 TPLRH (Escherichia coli, UniProt P23836); Sort-seq, refers to: YFP reporter; E. coli; PhoQ-PhoP variant library, together with: 10 µM Mg2+; baseline: high Mg2+ state, higher = stronger signaling): 0.885

Some of these lines once more (sample 2):
R88E: 75.5%
R49G: 45.8%
